Experimental data pooled from the literature.
Compare with care: the assays were run in different laboratories. Numbers after ± are the reported error.
Cell line: HeLa

| Compound | read-out | technique | time | notes | IC50 |
| --- | --- | --- | --- | --- | --- |
| O=[N+]([O-])[O-].[NH3+][Pt-2]1([NH3+])[O]C(c2ccccc2)=CC(c2ccccc2)=[O+]1 (stereo not drawn) | cell growth or viability | MTT |  |  | 6.7 µM |
| COc1cc(CN2CCN(c3ccccc3Cl)CC2)c2cc3[n+](cc2c1O)CCc1cc2c(cc1-3)OCO2 | cell growth or viability | SRB | 48 h |  | 5.41 µg/mL |
| C[C@]12CC/C(=N\OCCN3CCCC3)C=C1CCC1C2CC[C@]2(C)/C(=C/c3ccccn3)CCC12 (stereo partly drawn) | cell growth or viability | MTT | 72 h |  | 22.6 µM |
| CCCCc1ccc(C(=O)O[C@H]2[C@H](C)O[C@@H](O[C@H]3[C@H](N(C)C)[C@@H](O)[C@H](O[C@H]4[C@@H](CC=O)C[C@@H](C)[C@@H](O[C@H]5CC[C@H](N(C)C)[C@@H](C)O5)/C=C/C=C/C[C@@H](C)OC(=O)C[C@@H](O)[C@@H]4OC)O[C@@H]3C)C[C@@]2(C)O)cc1 | cell growth or viability | CCK-8 | 72 h |  | 4.22 µM |
| NC(=O)c1ccc(-c2ccccc2F)c2c3c([nH]c12)CCCC3 | cell growth or viability |  |  |  | > 10 µM |
| COc1cccc2c(NCc3ccccc3)nc(Nc3cccc(Cl)c3)nc12 | ODD-Luc degradation |  |  | p97-independent substrate | 18 ± 4 µM |
| CCCCCCOc1c(O)cc(C(=O)O[C@@H]2Cc3c(O)cc(O)cc3O[C@@H]2c2cc(O)c(O)c(O)c2)cc1O | cell growth or viability | CCK-8 | 24 h |  | 115 µM |
| COc1cc([C@@H]2c3cc4c(cc3[C@H](OC(=O)CCCc3ccc(NS(=O)(=O)c5ccccc5Br)cc3)[C@H]3COC(=O)[C@H]23)OCO4)cc(OC)c1OC | cell growth or viability | CCK-8 | 24 h |  | 55.4 µM |
| [Cl][Pd-]1([Cl])[S]C(Nc2ccccc2)=N[N+]1=Cc1ccc(-c2ccccc2)s1 | cell growth or viability |  |  |  | 254 µM |
| COC(=O)[C@@H]1CCCN1C(=O)[C@H](C)N(C)C(=O)OC(C)(C)C | cell growth or viability | SRB |  |  | 60 µM |
| COc1cc(/C=C/C(=O)NCCCCCCNC2=C3C[C@@H](C)C[C@H](OC)[C@H](O)[C@@H](C)/C=C(\C)[C@H](OC(N)=O)[C@@H](OC)/C=C\C=C(/C)C(=O)NC(=CC2=O)C3=O)ccc1O | cell growth or viability | MTT | 72 h |  | 0.341 µM |
| O=S(=O)([O-])[O-].[Cu+2].c1ccc(-c2nnc(-c3ccc4c(c3)OCO4)[nH]2)nc1 | cell growth or viability | MTT | 24 h |  | 4.98 µM |
| O=C(c1cc(Cl)c(Cl)[nH]1)c1ccccc1O | cell growth or viability | resazurin | 24 h |  | 13 µg/mL |
| CO[C@@H]1[C@@H](O[C@@H]2O[C@H](C)[C@@H](O[C@H]3C[C@@](C)(O)[C@@H](OC(=O)CN(C)C)[C@H](C)O3)[C@H](N(C)C)[C@H]2O)[C@@H](CC=O)C[C@@H](C)[C@@H](O[C@H]2CC[C@H](N(C)C)[C@@H](C)O2)/C=C/C=C/C[C@@H](C)OC(=O)C[C@H]1O | cell growth or viability | CCK-8 | 72 h |  | > 50 µM |
| O=C1c2ccc(O)cc2OC1(O)Cc1ccc(O)c(O)c1 (stereo not drawn) | cell growth or viability | MTT | 72 h |  | > 400 µM |
| C[C@H](NC(=O)Cc1ccc(-c2ccc(OCCN3CCOCC3)cc2)cn1)c1ccccc1 | cell growth or viability | CCK-8 | 48 h |  | 0.45 µM |
| CC(C)(C)c1cc2c(O)c(c1)Cc1cc(C(C)(C)C)cc(c1OCC(=O)NCc1ccccn1)Cc1cc(C(C)(C)C)cc(c1O)Cc1cc(C(C)(C)C)cc(c1OCC(=O)NCc1ccccn1)COC2 | cell growth or viability | MTT | 72 h |  | 10.9 µM |
| O=C(Cc1ccc(-c2ccc(OCCN3CCOCC3)cc2)cn1)NCc1ccccc1F | cell growth or viability | CCK-8 | 48 h |  | 0.26 µM |
| O=C(CN1C(=O)NC(c2ccccc2)(c2ccccc2)C1=O)N/N=C/c1ccccc1 | cell growth or viability | resazurin | 24 h |  | 170 µM |
| CO[C@@H]1[C@@H](O[C@@H]2O[C@H](C)[C@@H](O[C@H]3C[C@@](C)(O)[C@@H](OC(=O)Cc4ccc(C(C)(C)C)cc4)[C@H](C)O3)[C@H](N(C)C)[C@H]2O)[C@@H](CC=O)C[C@@H](C)[C@@H](O[C@H]2CC[C@H](N(C)C)[C@@H](C)O2)/C=C/C=C/C[C@@H](C)OC(=O)C[C@H]1O | cell growth or viability | CCK-8 | 72 h |  | 2.05 µM |
| C[C@]12CC/C(=N\OCCN3CCCCC3)C=C1CCC1C2CC[C@]2(C)/C(=C/c3ccccn3)CCC12 (stereo partly drawn) | cell growth or viability | MTT | 72 h |  | 32.2 µM |
| CC(=O)OC[C@H]1O[C@@H](NC(=O)[C@@H](C)Cc2ccc(C(C)C)cc2)[C@H](OC(C)=O)[C@@H](OC(C)=O)[C@@H]1OC(C)=O | cell growth or viability |  | 96 h |  | 64 µM |
| Cn1[c]([Ir-3]234([NH3+])[n]5c6ccc5C(c5c(F)c(F)c(F)c(F)c5F)=C5C=CC(=[N+]52)C(c2c(F)c(F)c(F)c(F)c2F)=c2ccc([n]23)=C(c2c(F)c(F)c(F)c(F)c2F)C2=[N+]4C(=C6c3c(F)c(F)c(F)c(F)c3F)C=C2)[n+](C)c2ccccc21.F[P-](F)(F)(F)(F)F | cell growth or viability | MTT | 72 h |  | 0.37 µM |
| O=c1ccn([C@@H]2O[C@H](CSSc3ccccn3)[C@@H](O)[C@H](F)[C@H]2O)c(=O)[nH]1 | cell growth or viability |  |  |  | 8.8 µM |
| S=c1n(-c2ccccc2)c2c3ccccc3nc3[n+]2[n]1[Ir-3]12([S]3)([c]3ccccc3-c3cccc[n+]31)[c]1ccccc1-c1cccc[n+]12 | cell viability | MTT |  | dark | > 50 µM |
| O=[N+]([O-])c1ccc(NC2=N[N+](=Cc3cccs3)[Pt-]([Cl])([Cl])[S]2)cc1 | cell growth or viability |  |  |  | 46 µM |

| Compound | read-out | technique | time | notes | IC50 |
| --- | --- | --- | --- | --- | --- |
| COc1cc(OC)c(-c2coc3c4c(c(OC)cc3c2=O)OC(C)(C)C=C4)cc1OC | cell growth or viability | MTT | 72 h |  | 14.8 µM |
| C[C@@H]1CC[C@@H]([C@](O)(CNCc2ccc(F)cc2)COCc2ccccc2)[C@H](OCc2ccccc2)C1 | cell growth or viability | MTT | 72 h |  | 7.2 µM |
| CC12CCC3c4ccc(OCCCOc5no[n+]([O-])c5S(=O)(=O)c5ccccc5)cc4CCC3C1CCC2O (stereo not drawn) | cell growth or viability | MTT | 48 h |  | 3.85 µM |
| CC(C)c1ccc(C[C@H](C)C(=O)N[C@@H]2O[C@H](CO)[C@@H](O)[C@H](O)[C@H]2O)cc1 | cell growth or viability |  | 96 h |  | > 250 µM |
| CC=C(C)C(=O)OC1C(O)C2(CO)C(CC1(C)C)C1=CCC3C4(C)CCC(O)C(C)(CO)C4CCC3(C)C1(C)C(O)C2O (stereo not drawn) | cell growth or viability | CCK-8 | 48 h |  | 45.1 µM |
| COC(=O)c1ccc(-n2nc(C(F)(F)F)cc2-c2cc(OC)c(OC)c(OC)c2)cc1 | cell growth or viability | SRB |  |  | 5.5 µM |
| OC(c1ccccc1)c1cnnn1Cc1ccc(-c2ccc(OCCN3CCOCC3)cc2)cn1 (stereo not drawn) | cell growth or viability | CCK-8 | 48 h |  | > 4 µM |
| C=C1C(=O)O[C@@H]2/C=C(\C)CC/C=C(/C(=O)OC)C[C@@H](OC(=O)/C(C)=C\C)[C@@H]12 | cell growth or viability |  | 24 h |  | 17.6 µM |
| O=C(Cc1ccccc1)NCc1ccc(-c2ccc(OCCN3CCOCC3)cc2)cn1 | cell growth or viability | CCK-8 | 48 h |  | 0.97 µM |
| Cc1cc(C=O)cc(C)c1Oc1cc(Nc2ccc(C#N)cc2)nc2cnccc12 |  |  | 48 h |  | 13.2 ± 0.7 µM |
| Cc1ccc2c(Cl)cc(Cl)c([O-])c2n1.Cc1ccc2c(Cl)cc(Cl)c([O-])c2n1.[Co+2].c1ccc2nc3c4cccnc4c4ncccc4c3nc2c1 | cell growth or viability | MTT | 48 h |  | 0.0008 µM |
| C[C@@H]1CC[C@@H]([C@@](C)(O)Cn2ccnc2)[C@H](OCc2ccccc2)C1 | cell growth or viability | MTT | 72 h |  | 23.2 µM |
| O=C1/C(=C(\O)CCc2ccccc2)C(=O)[C@@]2(C(=O)OCc3ccccc3)CS[C@H](c3ccccc3)N12 | cell growth or viability | resazurin |  |  | 31.3 µg/mL |
| Cc1c(C(=O)NNC(=O)Nc2ccc(Cl)cc2)nnn1Cc1nc2ccccc2[nH]1 |  |  | 48 h |  | 46.2 ± 2.7 µM |
| CC(C)(C(=O)O)C1(O)c2ccccc2-c2ccccc21 | cell growth or viability |  | 72 h |  | 99.1 µM |
| Nc1ncnc2c1ncn2CC(=O)N[C@@H](Cc1ccccc1)C(=O)N[C@@H](Cc1ccccc1)C(=O)O |  |  |  |  | > 500 µM |
| COc1ccc(CNC[C@@](O)(COCc2ccccc2)[C@@H]2CC[C@@H](C)C[C@H]2OCc2ccccc2)cc1 | cell growth or viability | MTT | 72 h |  | 2.4 µM |
| Cc1cc(C=O)cc(C)c1Oc1cc(Nc2ccc(C#N)cn2)nc2ccncc12 |  |  | 48 h |  | > 126 µM |
| CC[P+](c1ccccc1)(c1ccccc1)c1ccccc1 | cell growth or viability | resazurin | 72 h |  | 16.1 µM |
| CN1CCCNC(=O)c2cccc(c2)C(=O)NCCCN(C)CCCNc2cccc3c2C(=O)c2cccc(c2C3=O)NCCC1 | cell growth or viability | CCK-8 | 48 h |  | 0.3 µM |
| CC(=O)OC[C@H]1O[C@@H](NC(=O)CCCc2ccc3c(c2)CCCC3)[C@H](OC(C)=O)[C@@H](OC(C)=O)[C@@H]1OC(C)=O | cell growth or viability |  | 96 h |  | 118 µM |
| COC(=O)CNc1cc(C[S+]([O-])c2ccc3cc(Br)ccc3c2)ccc1OC (stereo not drawn) | cell growth or viability | MTS | 48 h |  | 0.116 µM |
| CO[C@@H]1[C@@H](O[C@@H]2O[C@H](C)[C@@H](O[C@H]3C[C@@](C)(O)[C@@H](OC(=O)C4CCCCC4)[C@H](C)O3)[C@H](N(C)C)[C@H]2O)[C@@H](CC=O)C[C@@H](C)[C@@H](O[C@H]2CC[C@H](N(C)C)[C@@H](C)O2)/C=C/C=C/C[C@@H](C)OC(=O)C[C@H]1O | cell growth or viability | CCK-8 | 72 h |  | 8.5 µM |
| COc1cc(CN2CCN(c3ccccc3[N+](=O)[O-])CC2)c2cc3[n+](cc2c1O)CCc1cc2c(cc1-3)OCO2 | cell growth or viability | SRB | 48 h |  | 5.97 µg/mL |
| Nc1ccn(CC(=O)N[C@@H](Cc2ccccc2)C(=O)N[C@@H](Cc2ccccc2)C(=O)O)c(=O)n1 |  |  |  |  | > 500 µM |

For quick reference, copied from above:
| Compound | read-out | technique | time | notes | IC50 |
| --- | --- | --- | --- | --- | --- |
| C=C1C(=O)O[C@@H]2/C=C(\C)CC/C=C(/C(=O)OC)C[C@@H](OC(=O)/C(C)=C\C)[C@@H]12 | cell growth or viability |  | 24 h |  | 17.6 µM |
| COC(=O)CNc1cc(C[S+]([O-])c2ccc3cc(Br)ccc3c2)ccc1OC (stereo not drawn) | cell growth or viability | MTS | 48 h |  | 0.116 µM |
| O=S(=O)([O-])[O-].[Cu+2].c1ccc(-c2nnc(-c3ccc4c(c3)OCO4)[nH]2)nc1 | cell growth or viability | MTT | 24 h |  | 4.98 µM |
| Cn1[c]([Ir-3]234([NH3+])[n]5c6ccc5C(c5c(F)c(F)c(F)c(F)c5F)=C5C=CC(=[N+]52)C(c2c(F)c(F)c(F)c(F)c2F)=c2ccc([n]23)=C(c2c(F)c(F)c(F)c(F)c2F)C2=[N+]4C(=C6c3c(F)c(F)c(F)c(F)c3F)C=C2)[n+](C)c2ccccc21.F[P-](F)(F)(F)(F)F | cell growth or viability | MTT | 72 h |  | 0.37 µM |
| OC(c1ccccc1)c1cnnn1Cc1ccc(-c2ccc(OCCN3CCOCC3)cc2)cn1 (stereo not drawn) | cell growth or viability | CCK-8 | 48 h |  | > 4 µM |
